Measurements pooled from the literature.
Lines come from different studies, so protocols differ. Numbers after ± are the reported error.

For `CC=C(C)C(=O)OC1C2C3(C)CCC(OC4CC(OC)C(OC5OC(C)C(OC6OC(CO)C(O)C(O)C6O)C(OC)C5O)C(C)O4)CC3CCC23OC32CCC(C(C)=O)C2(C)C1OC(C)=O` (stereo not drawn), “fold reversal of IC50” read 1 (MDA435/LCC6-MDR1; cell growth, MDR reversal, SRB; 10 µM, with: paclitaxel; baseline: paclitaxel alone over combination).
The viability of `COC(=O)C1=CO[C@@H](O)[C@@H]2C(Cn3cc(C4(O)CCCC4)nn3)=CC[C@H]12` is reported as 77.2 ± 0.9% (SK-N-SH; neuroprotection, MTT; 0.6 µM, 24 h, with: 250 µM H2O2).
`CC(C)CC(O)(CC(C)C)c1cn(C(=O)N2CCCC2)nn1` gave a protein level of 1.08 ± 0.07 (mouse T-cells; SILAC proteomics, item: ARHGEF2; 1 nM, 6 h, unit not given; baseline: DMSO).
`COC(=O)C1=CO[C@@H](OC(C)=O)[C@@H]2C(Cn3cc(CCCCN4C(=O)c5ccccc5C4=O)nn3)=CC[C@H]12` has a viability of 65.9 ± 1.1% (SK-N-SH; neuroprotection, MTT; 0.6 µM, 24 h, with: 250 µM H2O2).
`CC(C)[C@H](NC(=S)Nc1ccc2c(c1)C(=O)OC21c2ccc(O)cc2Oc2cc(O)ccc21)C(=O)N[C@@H](CCCNC(=N)N)C(=O)N[C@@H](CCCNC(=N)N)C(=O)N[C@@H](C)C(=O)N[C@@H](CC(=O)O)C(=O)N[C@@H](CC(N)=O)C(=O)N[C@@H](CCCNC(=N)N)C(=O)N1CCC[C@H]1C(=O)NCC(=O)O` — result for binding: “no binding” (vector-transfected HeLa; fluorescence; 5 µg/mL, 15 min, 37 °C).
For `CCCCCCCCCCCCCC(=O)NCC(=O)N[C@@H](CCCNC(=N)N)C(=O)N[C@@H](Cc1c[nH]c2ccccc12)C(=O)N[C@@H](CCCCN)C(=O)N[C@H](C(=O)N[C@@H](Cc1ccccc1)C(=O)N[C@@H](CCCCN)C(=O)N[C@@H](CCCCN)C(=O)N[C@H](C(=O)N[C@@H](CCC(=O)O)C(=O)N[C@@H](CCCCN)C(=O)N[C@H](C(=O)NCC(=O)N[C@@H](CCC(N)=O)C(=O)N[C@@H](CC(N)=O)C(=O)N[C@H](C(=O)N[C@@H](CCCNC(=N)N)C(=O)N[C@@H](CC(=O)O)C(=O)NCC(=O)N[C@H](C(=O)N[C@H](C(=O)N[C@@H](CCCCN)C(=O)N[C@@H](C)C(=O)NCC(=O)N1CCC[C@H]1C(=O)N[C@@H](C)C(=O)N[C@H](C(=O)N[C@@H](C)C(=O)N[C@H](C(=O)N[C@H](C(=O)NCC(=O)N[C@@H](CCC(N)=O)C(=O)N[C@@H](C)C(=O)N[C@@H](C)C(=O)N[C@H](C(=O)N[C@H](C(N)=O)[C@@H](C)CC)[C@@H](C)O)C(C)C)C(C)C)C(C)C)C(C)C)[C@@H](C)CC)[C@@H](C)CC)C(C)C)[C@@H](C)CC)[C@@H](C)CC`, ROS level read “increased” (Jurkat; DCFH-DA fluorescence; 3 and 6 µM, 12 h; baseline: PBS control).
`[Cl][Au].[Se]=c1n(C2CCCCC2)ccn1C1CCCCC1` gave a resistance factor of 0.8 (LoVo-OXP colon cancer cells; MTT; baseline: LoVo-OXP over LoVo IC50).
`CCOC(=O)c1ccc(NC(=S)Nc2ccc3c(c2)C(C)(C)CC(C)(C)S3)cc1`: “maximum growth inhibition” 54.1 ± 13.7% (786-O; MTS; range over 1 to 12.5 µM, 48 h).
Under ERK1/2 phosphorylation, `CC(C)C[C@@H]1NC(=O)[C@H](CCCNC(=N)N)NC(=O)[C@H](CCCCN)NC(=O)[C@H](CC(=O)O)NC(=O)[C@H](CCCCN)NC(=O)[C@@H](CO)NC1=O` is recorded as “decreased” (Panc1_A8; Western blot, item: pERK1/2; 500 nM, with: U0126 10 µM).
`COC(=O)C1=CO[C@@H](OC(C)=O)[C@@H]2C(Cn3cc(COCc4ccc(OC)c(OC)c4)nn3)=CC[C@H]12` gave a viability of 78.1 ± 0.4% (SK-N-SH; neuroprotection, MTT; 0.075 µM, 24 h, with: 250 µM H2O2).
`Cc1ccnc(Nc2c3c(nc4ccc(Cl)cc24)CCCC3)c1` gave a viability of 48 ± 4.33% (SH-SY5Y; MTT; 50 µM, 1 h pretreatment, 10% FBS, with: H2O2).
For `CCCCCCCCOCc1cn(CC2=CC[C@@H]3C(C(=O)OC)=CO[C@@H](O)[C@H]23)nn1`, the viability was 53.7 ± 2.5% (SK-N-SH; neuroprotection, MTT; 0.3 µM, 24 h, with: 250 µM H2O2).
For `COc1ccc2cc1Oc1cc3c(cc1OC)CCN(C)C3Cc1ccc(cc1)Oc1c(O)c(OC)cc3c1C(C2)N(C)CC3` (stereo not drawn), the selectivity index was greater than 100 fold (HEK293; baseline: HEK293 CC50 over parasite IC50).
For `COC(=O)C1=CO[C@@H](OC(C)=O)[C@@H]2C(Cn3cc(CCCO)nn3)=CC[C@H]12`, the viability was 78.8 ± 0.4% (SK-N-SH; neuroprotection, MTT; 0.075 µM, 24 h, with: 250 µM H2O2).
With `F[P-](F)(F)(F)(F)F.F[P-](F)(F)(F)(F)F.[Ru+2].c1ccc(-c2ccccn2)nc1.c1ccc(-c2ccccn2)nc1.c1csc(-c2ccc(-c3ccc(-c4cc5cccnc5c5ncccc45)s3)s2)c1` the phototherapeutic index was 25 (SK-MEL-28; cell viability; red light 625 nm; baseline: dark EC50 over light EC50).

Some of these lines once more:
`COC(=O)C1=CO[C@@H](OC(C)=O)[C@@H]2C(Cn3cc(COCc4ccc(OC)c(OC)c4)nn3)=CC[C@H]12` gave a viability of 78.1 ± 0.4% (SK-N-SH; neuroprotection, MTT; 0.075 µM, 24 h, with: 250 µM H2O2).
